Published values gathered from unrelated publications.
Every numbered part comes from another study and shows a few of its results, in no order.

Block 1
Target: Interferon regulatory factor 5, full length, phosphomimetic (IRF5, Homo sapiens, UniProt Q13568-2, residues 1-514, S451D/S453D/S456D/S462D)
Method: protein-binding microarray
Form: double-stranded DNA, one strand shown
Sample: in vitro
Concentration: 940 nM top
Notes: 60-bp whole probe
With: salmon DNA 0.4 mg/ml
Relative to: random background probes
Direction: higher = stronger binding
Measurement: fitted relative affinity
Constant ends, left off below: GCCTAGCAC … GTCTTGATTCGCTTGACGCTGCTG
TTAGGTCTCGGACTAGGTTAGTGCTAG: 1.05 z-score
GACGAACGGAGTTTCGAGACGTGCTAG: 3.6 z-score
TTAGATATCAGACTGGATTTGTGCTAG: -0.341 z-score
GACGGACTGCTTTTCGTGACGTGCTAG: -0.461 z-score
GGCGGTATCGGACTGGGGACGTGCTAG: 2.73 z-score
GACGGACCGGACTTTCGGGACGTGCTA: 0.337 z-score
TGTCCTTTCACTTTAACTTAGTGCTAG: 2.91 z-score

Block 2
Target: RNA binding protein fox-1 homolog 2, RRM domain, GST-SBP tag (RBFOX2, Homo sapiens, UniProt O43251-10, residues 100-194)
Method: RNA Bind-n-Seq
Form: RNA
Sample: in vitro
Concentration: 365 nM
Notes: natural RNA segment, single round, ends assumed
Relative to: no-protein control
Direction: higher = stronger binding
Measurement: RBNS enrichment (R)
Constant ends, left off below: GGGAGUUCUACAGUCCGACGAUC … UGGAAUUCUCGGGUGCCAA
Residues (chain): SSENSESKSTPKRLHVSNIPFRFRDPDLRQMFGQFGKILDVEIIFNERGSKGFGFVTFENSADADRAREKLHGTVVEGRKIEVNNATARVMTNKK
AGUAUAUUCUGUAAAACAGAAUGCAGACGAUGUUAAGAAGGCUCUAGAUGGCGAACUUGAUGAAAAGUAUAAGAAGGUAGAAAGUUUAAUUGCCCAAAAAACUGAAGAGU: 0.621
GCCAUCCCUGCACACAGCCUGGGGAGAAGCCUGUGCCUCCCCGUGUGGAGAGAAGGCAACCCCAGAUCCCCUGAGCUAACCCGGAGGAAAGGCAGUCCUGGACAGAAGAC: 0.665
AACACACCUCCAAACUGUAAGGCUGUGCACAAACAUAAAAAAUGGCAGCCUUCCAUCUCCUGCACUGGCUGAGUCCAUUUACUUGUGUACUUGUUCUAGUGAGUGGUGGG: 0.258
UGUACACUCCCUGGAAUGUAAUUGUUAACAUUCUUACAUUUGGGCCUCUUCACACACCGUCUGCCUGCCUGCUUCCUUCUGAGAAUAUUUUCCCAGUAUCUCCAGGCCUU: 0.446
CCACCAAAUUCUGAAUUUGUAGACAUACUUGUACGCUCACUUGCCCCAGAUGCCUCCUCUGUCCUCAUUCUUCUCUCCCACACAAGCAGUCUUUUUCUACAGCCAGUAAG: 1.42

Block 3
Target: Histone acetyltransferase KAT6A, winged helix 2, GST fusion (KAT6A, Homo sapiens, UniProt Q92794, residues 85-181)
Method: protein binding microarray
Form: double-stranded DNA, one strand shown
Sample: in vitro
Concentration: not given
Notes: 8-mer, flanks averaged, mean of 2 arrays, mostly near background
Relative to: not given
Direction: higher = stronger binding
Measurement: E-score
Target sequence (chain): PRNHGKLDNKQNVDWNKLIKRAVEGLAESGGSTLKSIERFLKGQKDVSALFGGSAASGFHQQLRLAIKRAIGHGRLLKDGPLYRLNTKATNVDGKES
ATCAGCGG: 0.0885
ATTATAGA: 0.00166
GTTTTTTA: 0.062
CCTTCAAC: -0.058
CCTCAGAA: -0.0118

Other studies, line by line
PhoQ, residues 284 288 289 292 302 303 GLASVI
fold induction (PhoP, residues 12 14 15 18 19 SEGLL (Escherichia coli, UniProt P23836); Sort-seq, refers to: YFP reporter; E. coli; PhoQ-PhoP variant library, with: 10 µM Mg2+; relative to: high Mg2+ state, higher = stronger signaling): 15.5
